Literature values, collected from citations in different studies.
Each numbered part shows a few of the values that one paper quotes. ± gives the spread as reported.
Chain of UniProt O42275 (whole entry, looked up): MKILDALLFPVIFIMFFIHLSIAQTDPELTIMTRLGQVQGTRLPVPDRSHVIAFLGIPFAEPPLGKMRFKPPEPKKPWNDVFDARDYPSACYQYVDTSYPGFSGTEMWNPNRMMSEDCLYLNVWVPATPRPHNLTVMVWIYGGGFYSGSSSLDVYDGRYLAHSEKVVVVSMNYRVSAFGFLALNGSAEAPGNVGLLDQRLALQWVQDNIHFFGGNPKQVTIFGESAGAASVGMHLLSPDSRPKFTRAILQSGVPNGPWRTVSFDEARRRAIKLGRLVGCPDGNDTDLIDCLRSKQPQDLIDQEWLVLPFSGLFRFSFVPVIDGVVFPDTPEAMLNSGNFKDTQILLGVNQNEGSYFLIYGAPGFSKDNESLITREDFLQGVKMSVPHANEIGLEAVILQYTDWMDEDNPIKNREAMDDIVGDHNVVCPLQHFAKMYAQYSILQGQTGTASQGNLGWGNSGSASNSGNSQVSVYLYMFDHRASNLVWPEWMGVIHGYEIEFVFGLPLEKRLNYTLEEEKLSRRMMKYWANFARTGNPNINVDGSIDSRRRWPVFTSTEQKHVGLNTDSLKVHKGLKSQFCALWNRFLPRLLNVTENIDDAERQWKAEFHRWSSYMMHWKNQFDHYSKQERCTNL

Set 1
Target: HLA class I histocompatibility antigen, C alpha chain, allele C*04:01 (Homo sapiens, UniProt P10321)
Effect on: peptide-MHC binding
Molecule type: peptide
Measurement: IC50
LYPTFYCLF: 3.35 µM
KAMRPWQSF: > 5 µM
TFVPIAWAAAY: > 20 µM
YYNAFHWA: > 20 µM
YTFFFTQYF: 20 µM
RYSHWTKL: > 20 µM
YMMDDLEL: > 20 µM
YFDPANGKF: 0.00374 µM
AQIGIFAPV: > 5 µM
WPILGFFPM: > 5 µM
RTLNLFRYK: > 5 µM
SYLTVHQMI: 20 µM
SLLERGQQLGV: > 20 µM
LVTMGTGTFGR: > 20 µM
YTITSLFSL: > 5 µM
GSSDFQVHFLK: > 20 µM
KSLTTTMQFK: > 20 µM
YFYYNAFHWAI: > 20 µM
FPYAIRLVA: > 5 µM
SLMASSPTSI: > 20 µM
YYWPRPRRY: 20 µM
AENQLFHST: > 5 µM
YTYGAGSYF: 20 µM
YPDPVIKV: > 20 µM
RYNCKCCWF: 20 µM

Further values, each from its own experiment
pyrDA: Dihydroorotate dehydrogenase A (fumarate) (pyrDA, Lactococcus lactis subsp. cremoris, UniProt A2RJT9)
Chain of UniProt A2RJT9 (whole entry, looked up): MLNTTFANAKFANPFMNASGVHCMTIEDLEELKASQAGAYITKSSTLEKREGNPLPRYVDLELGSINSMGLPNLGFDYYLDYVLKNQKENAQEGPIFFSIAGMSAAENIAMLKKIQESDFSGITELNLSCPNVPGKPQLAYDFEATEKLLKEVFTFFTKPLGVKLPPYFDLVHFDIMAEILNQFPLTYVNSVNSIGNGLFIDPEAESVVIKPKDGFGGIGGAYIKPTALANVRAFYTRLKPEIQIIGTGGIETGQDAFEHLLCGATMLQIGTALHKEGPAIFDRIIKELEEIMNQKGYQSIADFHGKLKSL
OC[C@H]1OC(O)[C@H]([18F])[C@@H](O)[C@@H]1O (some centres unmarked)  dose swallowed (rat; intranasal, 30 min): ~50%
Cc1ccc2c(c1)C(=O)C1(O)CCN(c3ccccc3)C1=N2 (centres unmarked)  EC50 (adenocarcinoma cells; cell motility): ~50 µM
Cc1sc2c(c1C)C(c1ccc(Cl)cc1)=N[C@@H](CC(=O)OC(C)(C)C)c1nnc(C)n1-2  clearance (mouse; intravenous, 5 mg/kg): 39.2 mL/min/kg
CN[C@@H](C)[C@@H](O)c1ccccc1  Ki (human OCT1; competitive inhibitor; MDCK-hOCT1 cell membranes; added: [3H]MPP+): 1.71 µM
CC[C@H](C)CCCCC(=O)N[C@@H](CCN)C(=O)N[C@H](C(=O)N[C@@H](CCN)C(=O)N[C@H]1CCNC(=O)[C@H]([C@@H](C)O)NC(=O)[C@H](CCN)NC(=O)[C@H](CCN)NC(=O)[C@H](CC(C)C)NC(=O)[C@@H](Cc2ccccc2)NC(=O)[C@H](CCN)NC1=O)[C@@H](C)O  renal excretion (human; dose not given, median): 4.04%
O=C(O)c1ccc(O)c(O)c1  Kd (pyrDA; Lactococcus lactis, wild type; 25 °C): 19 ± 2 µM
CC(C)NC[C@H](O)c1ccc(O)c(O)c1  Kd (organic cation transporter 1 (human); binding, frontal displacement chromatography; added: [3H]-MPP+ marker): 120 µM
O=c1c(O)c(-c2ccc(O[C@@H]3O[C@H](CO)[C@@H](O)[C@H](O)[C@H]3O)c(O)c2)oc2cc(O)cc(O)c12  ferric reducing ability (FRAP; concentration not given): 4.8 trolox equivalents
CC(=O)c1c(O)c(C)c(O)c2c1OC1=CC(=O)C(C(C)=O)C(=O)C12C (centres unmarked)  Ki (glutathione S-transferase; inhibitor): 12 ± 1.9 µM
CC1(C)CCC(CN2CCN(c3ccc(C(=O)NS(=O)(=O)c4ccc(NCC5CCOCC5)c([N+](=O)[O-])c4)c(Oc4cnc5[nH]ccc5c4)c3)CC2)=C(c2ccc(Cl)cc2)C1  AUC (human; oral, 100 mg single dose): 7100 ng·h/mL
CCC(CC)COC(=O)[C@H](C)N[P@](=O)(OC[C@H]1O[C@@](C#N)(c2ccc3c(N)ncnn23)[C@H](O)[C@@H]1O)Oc1ccccc1  fraction metabolized (cathepsin A; intravenous): ~10%
CCN(CC)CCNC(=O)c1cc(Br)c(N)cc1OC  IC50 (butyrylcholinesterase (rat plasma); inhibitor): 67.8 µM
CC(C)(C)c1cc(C=C(C#N)C#N)cc(Br)c1O  phosphorylation (neurons; outcome: decreased, refers to: Akt and Erk; concentration not given): decreased
C[C@H](Cc1ccc(O)cc1)NC[C@H](O)c1cc(O)cc(O)c1  Kd (organic cation transporter 1 (human); binding, frontal displacement chromatography; added: [3H]-MPP+ marker): 12.6 µM
N#C[C@@]1(c2ccc3c(N)ncnn23)O[C@H](CO)[C@@H](O)[C@H]1O  lung concentration (mouse; intravenous, 20 mg/kg remdesivir): 14200 nmol/kg
O=C(CS)Nc1ccc(Cl)c(Cl)c1  IC50 (A549): > 100 µM
O=C(O)c1cc(O)cc(O)c1  Kd (pyrDA; Lactococcus lactis, wild type; 25 °C): 18 ± 0.2 µM
C=C1C[C@@H]2[C@H](CC[C@]3(C)C(=O)CC[C@@H]23)[C@@]2(C)C=CC(=O)C=C12  reduction in invasive breast cancer incidence (healthy high-risk postmenopausal women; dose not given, long-term use): 65%
CN1COCN(Cc2cnc(Cl)s2)/C1=N\[N+](=O)[O-]  measured soil concentration (test soil; 0.37 mg/kg nominal, 28 days): 0.27 mg/kg dry soil
CCC(CC)COC(=O)[C@H](C)N[P@](=O)(OC[C@H]1O[C@@](C#N)(c2ccc3c(N)ncnn23)[C@H](O)[C@@H]1O)Oc1ccccc1  lung concentration (mouse; 20 mg/kg, 1 h): 308 nmol/kg
CC(=O)c1c(O)c(C)c(O)c2c1OC1=CC(=O)C(C(C)=O)C(=O)C12C (centres unmarked)  Ki (ache (Electrophorus electricus, UniProt O42275)): 0.00016 µM
C[Si]1(C)O[Si](C)(C)O[Si](C)(C)O[Si](C)(C)O[Si](C)(C)O1  bioconcentration factor (Poecilia reticulata; concentration not given, reanalysed data): 1040 L/kg wet weight
CC(C)NC[C@H](O)c1ccc(O)c(O)c1  Ki (human OCT1; competitive inhibitor; MDCK-hOCT1 cell membranes; added: [3H]MPP+): 120 µM
COc1cccc(CCc2cc(O)c(=O)[nH]n2)c1  IC50 (D-amino acid oxidase mouse; inhibitor): 0.0044 µM
CN[C@H](CC(C)C)C(=O)N[C@H]1C(=O)N[C@@H](CC(N)=O)C(=O)N[C@H]2C(=O)N[C@H]3C(=O)N[C@H](C(=O)N[C@H](C(=O)O)c4cc(O)cc(O)c4-c4cc3ccc4O)[C@H](O)c3ccc(c(Cl)c3)Oc3cc2cc(c3O[C@@H]2O[C@H](CO)[C@@H](O)[C@H](O)[C@H]2O[C@H]2C[C@](C)(N)[C@H](O)[C@H](C)O2)Oc2ccc(cc2Cl)[C@H]1O  nephrotoxicity incidence (Sprague Dawley rat; dose not given, 10 days): 60%

Excerpt of the above (set 1):
SLMASSPTSI: > 20 µM
YPDPVIKV: > 20 µM
RYNCKCCWF: 20 µM
